Assay results pooled from the literature.
Lines come from different studies, so protocols differ. ± marks the error that the study gave.

`CCOc1ccc2cc(-c3nn(CC4CCN(C)CC4)c4ncnc(N)c34)ccc2n1` has an EC50 of 6.93 µM (Theileria equi; parasite growth, hydroethidine flow cytometry; USDA Florida; 72 h).
With `CC(C)N(Cc1cnc2nc(N)nc(N)c2n1)c1ccc(Cl)c(Cl)c1` the IC50 was over 20000 nM (Plasmodium yoelii; 17XL; 384-well).
For `O=C(Nc1cccc(C2=NCCN2)c1)Nc1cccc(C2=NCCN2)c1`, the inhibition was 42.4% (Theileria equi; parasite growth, flow cytometry; horse erythrocytes, USDA Florida strain; 0.005375 µM, 72 h).
`O=c1c(-c2nc3ccccc3s2)cc2c(n1NS(=O)(=O)c1ccccc1)CCCC2` has a reduction of 30% (Hepatitis C virus; viral replication, qRT-PCR; Huh7.5 cells, genotype 4 ED-43/SG-Feo; non-toxic concentration).
For `CNC(C)C1CCC(N)C(OC2C(N)CC(N)C(OC3OCC(C)(O)C(NC)C3O)C2O)O1` (stereo not drawn), the MIC was over 8 µg/mL (Citrobacter freundii; clinical isolate RKI-No_604/16).
`CCCCCCCCc1c(C)[nH]c(C)c(C#N)c1=O` gave an IC50 of 99 ± 25 nM (Plasmodium yoelii; 17XL; 384-well).
For `COC1=C(OC)/C(=C/c2[nH]c(Cc3ccc(OC(F)(F)F)cc3)cc2Cc2ccc(OC(F)(F)F)cc2)N=C1c1ccc[nH]1.Cl`, the parasitaemia reduction was 100% (Plasmodium yoelii; CF1 mice; oral, 25 mg/kg daily for 4 days, day 5; baseline: vehicle).
`N=C(N)c1ccc(OCc2cc(Br)cc(COc3ccc(C(=N)N)cc3)c2)cc1`: “MIC of compound in combination” 3.13 µg/mL (Escherichia coli; checkerboard; mcr-2 polymyxin-resistant; concentration not given, 20 h, with: rifampicin).
Under “% of maximum PPE”, `CCOc1ccc2cc(-c3nn(CC4CCNCC4)c4ncnc(N)c34)ccc2c1` is recorded as 101% (Theileria equi; hydroethidine flow cytometry; USDA Florida; 0.3 µM, 72 h).
`Cc1[nH]c(C)c(-c2ccc(-c3ccc(Cl)cc3)nc2)c(=O)c1Cl` has an IC50 of 348 ± 164 nM (Plasmodium yoelii; 17XL; 384-well).
For `Cc1[nH]c(/C=C2\N=C(c3ccc[nH]3)C=C2OCc2ccccc2)cc1Cc1ccc(OC(F)(F)F)cc1`, the ED50 was 2.57 mg/kg/day (Plasmodium yoelii; parasitaemia; mouse; 4-day treatment, parasitaemia day 5).
`N#Cc1ccc(CN2CCC(Oc3ccc(NC(=O)c4cccs4)cc3Cl)CC2)cc1` gave an IC50 of 2430 ± 374 nM (Plasmodium yoelii; 17XL; 384-well).
Under “% of maximum PPE”, `CCOc1ccc2cc(-c3nn(CC4CCN(C)CC4)c4ncnc(N)c34)ccc2c1` is recorded as 6.95% (Theileria equi; hydroethidine flow cytometry; USDA Florida; 30 µM, 72 h).
With `CC(C)n1ncc2c(C(=O)NCC3(C)CNC3)cc(C3CC3)nc21` the EC50 was 0.25 µM (Enterovirus D68; cytopathic effect; RD, US/MO/14-18947).
`Cc1[nH]c(C)c(-c2ccc(-c3ccc(F)cc3)cc2)c(=O)c1Br` gave an IC50 of 721 ± 227 nM (Plasmodium yoelii; 17XL; 384-well).

Excerpt of the above:
For `CNC(C)C1CCC(N)C(OC2C(N)CC(N)C(OC3OCC(C)(O)C(NC)C3O)C2O)O1` (stereo not drawn), the MIC was over 8 µg/mL (Citrobacter freundii; clinical isolate RKI-No_604/16).
